# Assay results of several laboratories.
# Compare with care: the assays were run in different laboratories. Several values in a cell are separate wells, animals, samples, runs or records. Numbers after ± are the reported error.
Structure (SMILES),assay,system,setting,scale,measurement,result
Cn1cc(Nc2nc(N)nc(-c3cccc(-n4ccc5cc(C6CC6)cc(F)c5c4=O)c3CO)n2)cn1,"CD63 upregulation, anti-IgE-induced","human, multiple ascending dose, whole blood basophils ex vivo","300 mg twice daily, day 14, 8 h",,inhibition,97.3%
Cc1noc(C)c1-c1cc(C(O)(c2ccccn2)c2ccccn2)c2nc(C3CC3)[nH]c2c1,refers to: CCR2 expression,"human, peripheral blood","9 mg, day 1, 1604 study",,maximum inhibition,40%
CSCCNc1nc(SCCC(F)(F)F)nc2c1ncn2[C@@H]1O[C@H](COP(=O)(O)OP(=O)(O)C(Cl)(Cl)P(=O)(O)O)[C@@H](O)[C@H]1O,light transmittance aggregometry,"human patients, platelet-rich plasma","dose not given, 15 min, with: ADP 5 µM",,inhibition of platelet aggregation,44 ± 20.9%
Cc1cn(-c2ccc3n(c2=O)CCN([C@@H](C)[C@@H]2CC[C@H](c4cc(F)c(Cl)cc4C(F)(F)F)O2)C3=O)cn1,refers to: amyloid beta 38,"human, non-elderly, cerebrospinal fluid","100 mg once daily, 14 days, sampled 336 h",relative to: placebo,change from baseline,8.55%
N#Cc1ccc2c(c1)[C@H]1CCCN(C(=O)c3ccc4[nH]cnc4c3)[C@H]1C2,,"human, Phase II trial","oral, 20 mg once daily, day 28, adjusted mean, SE",,"change, HOMA-beta, from baseline",9.5%
Oc1ccc(Br)cc1C=NCCN1CCOCC1,nitric oxide scavenging,,120 µM,,inhibition,18.6%
NC(=O)c1cnc2[nH]ccc2c1N[C@@H]1[C@@H]2CC3C[C@H]1C[C@@](O)(C3)C2,"flow cytometry, refers to: CD4+ memory T cells","Japanese healthy subjects, peripheral blood","oral, 10 mg twice daily, day 4",,change from baseline,0.18%
CCN(Cc1nc2c(N)nc3cc(-c4cc[nH]n4)ccc3c2[nH]1)C(C)=O,,human,2000 µg,relative to: baseline,decrease in skin lesions,~57%
C[C@H]1C[C@H]2CSC(N)=N[C@@]2(c2nc(NC(=O)c3ccc(OC(F)F)cn3)cs2)CO1,refers to: total Aβ,"healthy adults, plasma","125 mg once daily, day 7",relative to: placebo,percent change from baseline,-62.8%
C[C@@H](O)CCOC(=O)C[C@@H](C)O,refers to: C5-DC acylcarnitine,"human, plasma","60 min, log2-transformed values",,metabolite level,-4.11 ± 0.78 µmol/L
Cc1ccc(C(=O)OCc2ccc([C@@H](CN)C(=O)Nc3ccc4cnccc4c3)cc2)c(C)c1,tonometry,"NZW rabbit, magnetic bead-induced ocular hypertension","ocular, 0.02%, 2 h",,IOP,34.2 mmHg
Cc1ccc(C(=O)Nc2ccnc(S(N)(=O)=O)c2)c(N2CCCC(F)(F)CC2)n1,,rhesus macaque,"intravenous, 0.4 mg/kg",relative to: vehicle,capsaicin flare,decreased
Cn1cc(Nc2nccc(-c3ccc4c(c3)CN(C3COC3)CC[C@H]4NC(=O)c3cn(C(C)(C)C)nn3)n2)cn1,refers to: leptin signaling in obesity,"splenic B cells, mice","30 mg/kg, IgD-activated in vivo","relative to: vehicle, direction not given",pathway activation z-score,1.67
Cc1cnc(N2CC3(CCOCC3)C2)c(C(=O)Nc2ccc(C(=O)N3CCc4cc(C(=O)Nc5c(C)cccc5F)sc4-c4ccccc43)cc2)c1,refers to: CXCL8 AUC,"human, RSV challenge, plasma",dose not given,relative to: placebo,inhibition,58%
C=CCn1c(=O)c2cnc(Nc3ccc(N4CCN(C)CC4)cc3)nc2n1-c1ccc2c(n1)[C@@](O)(CC)CC2,,"A-427 xenograft, NOD/SCID mouse",40 mg/kg once daily,,tumour growth inhibition,75%
C[C@@H](NC(=O)N1C(=O)[C@H](Cc2ccnc(N)c2)[C@H]1C(=O)O)C1CCCCC1,,human,"iv infusion, 1.5 mg/kg/h, 24 h",,PT AUEC,1850 h·s
N#CC[C@H](C1CCCC1)n1cc(-c2ncnc3[nH]ccc23)cn1,,"Balb/c mice, oxazolone atopic dermatitis","day 11, unit not given",relative to: vehicle,ear thickness difference,-0.121
O=C1Nc2cc3[nH]nc(-c4ccncc4)c3cc2CN1Cc1ccccc1,RECIST v1.1,"human, relapsed or refractory advanced solid tumours","intravenous, 5.4 mg/kg, pooled schedules",,"partial response, best response",0%
N#Cc1ccc2c(-c3ccncc3)c(-c3ccc(F)cc3)nn2c1,"kinase binding, competitor, MIB/MS competition, refers to: MKK2",Candida albicans cell lysate,1 µM,relative to: DMSO,log2 fold change,0.155
O=C1Nc2ccccc2C1=Cc1ccccn1,ferric chloride carotid thrombosis,rat,"oral, 11.2 mg/kg, 2 h before thrombosis",,occlusion time prolongation,114%
Cc1n[nH]c2ccc(-c3cc(OC[C@@H](N)Cc4ccccc4)cnc3-c3ccoc3)cc12,"kinase binding, competitor, MIB/MS competition, refers to: IRE1",Candida albicans cell lysate,1 µM,relative to: DMSO,log2 fold change,0.0485
O=C(O)/C=C/c1ccc(O)c(O)c1,"western blot, refers to: HO-1 and NQO1","C57BL/6 mouse, myocardial ischaemia-reperfusion, heart",dose not given,,protein level,increased
CCO[C@H]1CCN(Cc2c(OC)cc(C)c3[nH]ccc23)[C@H](c2ccc(C(=O)O)cc2)C1,,"PNH patients, blood","oral, 50 mg then 200 mg, week 2, mean absolute change",relative to: baseline,C3d-positive type III RBCs,-0.9%
OC(CCN1CCCCC1)(c1ccccc1)C1CC2C=CC1C2 (stereo not drawn),resting-state EEG,healthy elderly humans,"oral, 2 mg, eyes open, LS mean",relative to: baseline,"delta power change, EEG, in Pz-O1",25.1%
C[C@H](Oc1ccc(Br)cc1-c1ccon1)C(=O)O,muscle velocity recovery cycle,"human, tibialis anterior muscle","200 mg once daily, last response peak at 30 Hz, multiple ascending dose",,difference from placebo,15%
FC(F)(F)CN1CC(n2cc(Oc3ccn4nc(Cl)cc4n3)cn2)C1,"untargeted lipidomics, refers to: PC with ≥42 carbons","Abcd1-/y mice, brain and spinal cord","dose not given, 30 days",,phosphatidylcholine level,decreased
c1ccc(-c2n[nH]cc2-c2ccnc3ccccc23)nc1,"kinase binding, competitor, MIB/MS competition, refers to: KIN2",Candida albicans cell lysate,1 µM,relative to: DMSO,log2 fold change,0.887
CC(c1cc2ccccc2s1)N(O)C(N)=O (stereo not drawn),refers to: 15-HETE,human whole blood,"3 µM, with: Escherichia coli",,amount,1760 ± 353 pg/mL blood
NC/C(=C\F)COc1cccc(Cn2c(=S)[nH]c(=O)c3[nH]cnc32)c1,,"Mus musculus, carrageenan air pouch exudate","30 mg/kg, 12 h, λ-carrageenan-induced oedema",,exudate volume,2.9 mL and 3 mL and 3.2 mL and 2 mL
CC(C)C[C@@H](C=O)NC(=O)[C@H](CC(C)C)NC(=O)[C@H](CC(C)C)NC(=O)OCc1ccccc1,refers to: Ub(G76V)-GFP,,0.039 µM,,degradation rate constant,0.0246 min⁻¹
CN[C@@H]1COc2c(S(=O)(=O)NC(=O)Nc3c4c(cc5c3CCC5)CCC4)cnn2C1,refers to: IL-1β,"human participants, whole blood ex vivo","300 mg twice daily, multiple doses, 148 h, with: LPS/ATP",relative to: baseline,inhibition,99.7%
CC(C)NCC(O)c1ccc(O)c(O)c1 (stereo not drawn),,"ventricular cardiomyocytes, C57BL/6 mouse","dose not given, 0.636 s",,sarcomere length,1.72 µm
N#Cc1ccc(Oc2ccc3c(c2)COB3O)cc1,,"Balb/c mice, oxazolone atopic dermatitis","day 8, unit not given",relative to: vehicle,ear thickness difference,-0.119
CC(C)C[C@H](NC(=O)[C@@H](Cc1c[nH]c2ccccc12)NC(=O)[C@H](Cc1ccc(O)cc1)NC(=O)[C@H](CO)NC(=O)[C@H](Cc1c[nH]c2ccccc12)NC(=O)[C@H](Cc1c[nH]cn1)NC(=O)[C@@H]1CCC(=O)N1)C(=O)N[C@@H](CCCNC(=N)N)C(=O)N1CCC[C@H]1C(=O)NCC(N)=O,,"Chinese girls, central precocious puberty","intramuscular, 22.5 mg day 1, month 6, month 6, Tanner stage III",,girls at breast stage,37%
Cn1cc([C@H]2C[C@H]3CSC(N)=N[C@@]3(c3ccc(F)cc3F)CO2)cn1,refers to: Aβx-42,"Mus musculus wild-type, brain","subcutaneous, 50 mg/kg, 13 h",,Aβ42 level,0.31 ng/g
N=C(N)NCCC[C@H](NC(=O)[C@H](CCCNC(=N)N)NC(=O)[C@H](CCCCN)NC(=O)[C@H](CCC(N)=O)NC(=O)[C@H](CCCCN)NC(=O)[C@H](Cc1ccc(O)cc1)NC(=O)[C@@H](N)CCCCN)C(=O)N[C@@H](CO)C(=O)N[C@@H](Cc1ccc(O)cc1)C(=O)N[C@@H](CCCCN)C(=O)O,air evaporative stimulus,dentin hypersensitivity patients,"2.5 µg/tooth single, day 22, phase 1/2a","relative to: baseline, direction not given",Schiff sensitivity score change,-0.67 ± 0.82
CCOc1cc([C@@H](CS(C)(=O)=O)N2C(=O)c3cccc(NC(C)=O)c3C2=O)ccc1OC,,"Balb/c mice, oxazolone atopic dermatitis","day 17, unit not given",relative to: vehicle,ear thickness difference,-0.132
COc1ncc(-c2nc3c(n2C(C)C)[C@H](c2ccc(Cl)cc2)N(c2cc(Cl)cn(C)c2=O)C3=O)c(OC)n1,International Working Group criteria,human acute myeloid leukemia patients,"oral, 120 mg, response CRi, high-dose, recommended dose for expansion",,best overall response,0%
CCOc1c([C@H](C)n2nc(C)c3c(N)ncnc32)cc(Cl)c(F)c1[C@@H]1CNC(=O)C1,"Olink proximity extension proteomics, refers to: TNFRSF9","human FL or MZL patients, plasma","dose not given, week 8",relative to: baseline,plasma protein level change,-73%
COc1ccc(-c2cncc(N[C@@H](C)c3cccc(NC(=O)c4cncc(C)c4)c3)n2)cc1OC,refers to: rno-miR-329-3p,"rat SU5416/hypoxia model, lung",dose not given,relative to: SU5416/hypoxia vehicle,fold change,1.08
COc1cc(Nc2ncc3c(n2)-c2ccc(Cl)cc2C(c2c(F)cccc2OC)=NC3)ccc1C(=O)O,,"mouse, NB-SD neuroblastoma xenograft",20.8 mg/kg,direction not given,median response score,4
COc1ccccc1[C@H](Cn1c(=O)n(C(C)(C)C(=O)O)c(=O)c2c(C)c(-c3ncco3)sc21)OC1CCOCC1,"[1-13C]acetate infusion, isotopomer analysis","overweight or obese healthy men, plasma VLDL-TG palmitate","oral, 50 mg single dose, 4 h post-dose, with: oral fructose",,fractional hepatic DNL,5.14 % new palmitate
O=C(O)CNC(=O)Cc1ccccc1,,"ventricular cardiomyocytes, C57BL/6 mouse","dose not given, 0.736 s",,sarcomere length,1.72 µm
N#Cc1ccn2c(-c3ccncc3)c(-c3ccc(F)cc3)nc2c1,"kinase binding, competitor, MIB/MS competition, refers to: RIO2",Candida albicans cell lysate,1 µM,relative to: DMSO,log2 fold change,-0.0797
C[C@H]1O[C@@H](O[C@H]2CC[C@@]3(C)[C@@H](CC[C@]4(C)[C@@H]3C=C[C@]35OC[C@@]6(CCC(C)(C)C[C@H]63)[C@@H](O)C[C@]54C)[C@]2(C)CO)[C@H](O)[C@@H](O[C@@H]2O[C@H](CO)[C@@H](O)[C@H](O)[C@H]2O)[C@H]1O,,"chronic-plus-binge ethanol-fed mice, plasma","dose not given, medium dose",relative to: AST over ALT,AST/ALT ratio,1.53 and 1.61 and 1.23 and 1.75

# Repeated from above:
Structure (SMILES),assay,system,setting,scale,measurement,result
NC(=O)c1cnc2[nH]ccc2c1N[C@@H]1[C@@H]2CC3C[C@H]1C[C@@](O)(C3)C2,"flow cytometry, refers to: CD4+ memory T cells","Japanese healthy subjects, peripheral blood","oral, 10 mg twice daily, day 4",,change from baseline,0.18%
N#Cc1ccc2c(-c3ccncc3)c(-c3ccc(F)cc3)nn2c1,"kinase binding, competitor, MIB/MS competition, refers to: MKK2",Candida albicans cell lysate,1 µM,relative to: DMSO,log2 fold change,0.155
Cc1ccc(C(=O)OCc2ccc([C@@H](CN)C(=O)Nc3ccc4cnccc4c3)cc2)c(C)c1,tonometry,"NZW rabbit, magnetic bead-induced ocular hypertension","ocular, 0.02%, 2 h",,IOP,34.2 mmHg
N#Cc1ccc(Oc2ccc3c(c2)COB3O)cc1,,"Balb/c mice, oxazolone atopic dermatitis","day 8, unit not given",relative to: vehicle,ear thickness difference,-0.119
